Measured values from different studies.
Each line is one published result; not all experiments were run side by side. ± gives the spread as reported.

`CC(=O)N1CCC(C(=O)N2CCN3C(=O)c4cc(-c5ccccc5)ccc4NC(=O)C3C2)CC1` (stereo not drawn) — result for “fold increase in revertants”: 1.6 (Salmonella typhimurium; TA1537; 5.0 µg/plate, together with: rat liver S9; reference: vehicle).
For `Nc1ccc2cc3ccccc3cc2c1`, the revertant ratio was 4.7 (Salmonella typhimurium; Ames test, initial; TA100; 2.0 µg/plate, together with: rat liver S9; reference: solvent control).
`COc1cccc(-c2n[nH]c(SCc3ccccn3)n2)c1OC` — result for “revertant colonies per plate”: 112 (Salmonella typhimurium; Ames test, plate incorporation; TA100; 1.0 mg/plate, with rat liver S9).
For `CO[C@H]1C[C@@H]2CC[C@@H](C)[C@@](O)(O2)C(=O)C(=O)N2CCCC[C@H]2C(=O)O[C@H]([C@H](C)C[C@@H]2CC[C@@H](OC(=O)NCCOCCOCCOCCOCCOCCOCCOCCOCCC(=O)N3CCc4cc(Cn5nc(-c6ccc7oc(N)nc7c6)c6c(N)ncnc65)ccc4C3)[C@H](OC)C2)C[C@@H](O)[C@H](C)/C=C(\C)[C@@H](O)[C@@H](OC)C(=O)[C@H](C)C[C@H](C)/C=C/C=C/C=C/1C`, the anaemia incidence was 0% (patients with advanced solid tumours; intravenous, 10 mg weekly, grade 3 or higher).
For `OCc1ncc2n1-c1ccc(Cl)cc1C(c1ccccc1F)=NC2`, “geometric LS mean ratio of Cmax” read 1.25 (CYP3A4 (human); human, plasma; oral, 2 mg midazolam, Day 14, together with: encorafenib at steady state; reference: Day -7).
The survival rate of `[Cl-].[Cl-].[Pt+2].[Ru+2].c1ccc(-c2nccnc2-c2ccccn2)nc1.c1cnc2c(c1)ccc1cccnc12.c1cnc2c(c1)ccc1cccnc12` is reported as 90 ± 1.9% (Danio rerio; embryos; 15 µM, 48 h).
For `O=[N+]([O-])c1ccc(NC2CCNCC2)c(C(F)(F)F)c1`, the survival was 115% (Salmonella typhimurium; SOS/umu test; TA1535/pSK1002; 0.002 mg/mL, 4 h, with S9, full range).
`[Cl-].[Cl-].[Pt+2].[Ru+2].c1ccc(-c2nc3cc4ccccc4cc3nc2-c2ccccn2)nc1.c1cnc2c(c1)ccc1cccnc12.c1cnc2c(c1)ccc1cccnc12` has a survival rate of 100% (Danio rerio; embryos; 75 µM, 0 h).
`COc1cc(Nc2ncc(F)c(Nc3ccc4c(n3)NC(=O)C(C)(C)O4)n2)cc(OC)c1OC` gave an IC50 of > 10 µM (NOS3 (Homo sapiens, UniProt P29474); enzyme activity, inhibitor).
For `OC(CCN1CC=C(c2ccc(F)cc2)CC1)c1ccc(F)c2ccccc12` (stereo not drawn), the survival was 92.9% (Salmonella typhimurium; SOS/umu test; TA1535/pSK1002, TGA medium; 0.000244 mg/mL, 4 h, together with: 10% rat liver S9).
With `Cc1cc(C(=O)NC(C)(C)COc2cccc3c2C(N)=NS(=O)(=O)N3)cc(C)n1` the revertant ratio was 1.3 (Salmonella typhimurium; Ames test, initial; TA98; 1.50 µg/plate; reference: solvent control).
The tissue uptake of `CC[C@H](C)[C@H](NC(=O)[C@H](Cc1ccccc1)NC(=O)[C@H](CCC(=O)O)NC(=O)[C@H](CCCNC(=N)N)NC(=O)[C@H](C)NC(=O)[C@H](C)NC(=O)[C@H](CCC(N)=O)NC(=O)[C@H](CCC(=O)O)NC(=O)[C@H](CCC(=O)O)NC(=O)[C@H](CC(C)C)NC(=O)[C@H](Cc1ccc(O)cc1)NC(=O)[C@H](CO)NC(=O)[C@H](CO)NC(=O)[C@@H](NC(=O)[C@H](CC(=O)O)NC(=O)[C@H](CO)NC(=O)[C@@H](NC(=O)[C@H](Cc1ccccc1)NC(=O)[C@@H](NC(=O)CNC(=O)[C@H](CCC(=O)O)NC(=O)[C@H](C)NC(=O)CCc1c[nH]cn1)[C@@H](C)O)[C@@H](C)O)C(C)C)C(=O)N[C@@H](C)C(=O)N[C@@H](Cc1c[nH]c2ccccc12)C(=O)N[C@@H](CC(C)C)C(=O)N[C@H](C(=O)N[C@@H](CCCNC(=N)N)C(=O)NCC(=O)N[C@@H](CCCNC(=N)N)C(=O)N[C@@H](CCCCNC(=O)COCCOCCNC(=O)COCCOCCNC(=O)CC[C@H](NC(=O)CCCCCCCCCCCCCCCCC(=O)O)C(=O)O)C(=O)NCC(=O)NCC(=O)N[C@@H](CO)C(=O)N[C@@H](CCCCNc1c(NCCCCCN(O)C(=O)CCC(=O)NCCCCCN(O)C(=O)CCC(=O)NCCCCCN(O)C(C)=O)c(=O)c1=O)C(=O)O)C(C)C` [zirconium-89 labelled] is reported as 0.38 %ID/g (rat, spleen; iv, 3 nmol/kg, 4 h, ex vivo).
The survival rate of `[Cl-].[Cl-].[Pt+2].[Ru+2].c1ccc(-c2nc3ccccc3nc2-c2ccccn2)nc1.c1cnc2c(c1)ccc1cccnc12.c1cnc2c(c1)ccc1cccnc12` is reported as 100% (Danio rerio; embryos; 45 µM, 0 h).
The survival of `Fc1ccc(C2=CCNCC2)cc1` is reported as 97.3% (Salmonella typhimurium; SOS/umu test; TA1535/pSK1002; 0.002 mg/mL, 4 h, without S9, full range).
For `C[C@H]1CN(c2n[nH]c3nc(N[C@H]4CC[C@H](NS(=O)(=O)CCC(F)(F)F)CC4)ncc23)CCO1`, the remaining binding was 1.56 (Nuclear pore complex protein Nup160 (Homo sapiens, UniProt Q12769); Kinobeads competition, measured: NUP160; 0.032 µM, unit not given; reference: vehicle).

Some of these lines once more:
For `Nc1ccc2cc3ccccc3cc2c1`, the revertant ratio was 4.7 (Salmonella typhimurium; Ames test, initial; TA100; 2.0 µg/plate, together with: rat liver S9; reference: solvent control).
`COc1cccc(-c2n[nH]c(SCc3ccccn3)n2)c1OC` — result for “revertant colonies per plate”: 112 (Salmonella typhimurium; Ames test, plate incorporation; TA100; 1.0 mg/plate, with rat liver S9).
